Experimental data pooled from the literature.
Each line is one published result; not all experiments were run side by side. ± gives the spread as reported.

Compound | assay | test system | setting | logP
ClC1C[N+]2=Cc3ccc4[n]3[Au-]23[n]2c(ccc2-c2nc5ccccc5nc2-4)C=[N+]3C1.F[P-](F)(F)(F)(F)F |  | octanol/water |  | 1.06
O=c1cc(-c2ccccc2)oc2cc(O)cc([O][Ga+][O]c3cc(O)cc4oc(-c5ccccc5)cc(=O)c34)c12 | shake-flask octanol/PBS |  | pH 7.4, 37 °C | 1.78
O=c1cc(/C=C/c2ccc(N(c3ccccc3)c3ccccc3)cc2)oc(/C=C/c2ccc(N(c3ccccc3)c3ccccc3)cc2)c1 |  | n-octanol/10 mM PBS | pH 7.4 | 2.08
Cc1cc2nc3c(nc2cc1C)-c1ccc2[n]1[Au-]14[n]5c(ccc5-3)C=[N+]1CCC[N+]4=C2.F[P-](F)(F)(F)(F)F |  | octanol/water |  | 1.02
COc1cc(C2CC(Nc3ccc(-c4ccc(NC5=NOC(c6ccc(O)c(OC)c6)C5)cc4)cc3)=NO2)ccc1O (stereo not drawn) | shake flask UV/Vis | n-octanol/water |  | 5.02
Cc1cc(NC(=O)c2ccc(Br)cc2)n[nH]1 |  | octanol/buffer | 67 µM, pH 11 | 2.7
CC(CCC(=O)OCc1cccc(CN(C(=O)OCc2ccc(B3OC(C)(C)C(C)(C)O3)cc2)[c-]2cccc2)c1)C1CCC2C3C(O)CC4CC(O)CCC4(C)C3CC(O)C12C.[Fe+2].c1cc[cH-]c1 (stereo not drawn) | RP-TLC |  | pH 7.4 | > 6.25
Cc1nc(C)c(-c2ccnc(Nc3cccc(C#N)c3)n2)s1 |  | octanol/buffer, 40 mM buffer | pH 11 | 3.89
Oc1ccc(C2CC(Nc3ccc(-c4ccc(NC5=NOC(c6ccc(O)cc6)C5)cc4)cc3)=NO2)cc1 (stereo not drawn) | shake flask UV/Vis | n-octanol/water |  | 5.41
CC(CCC(=O)[O][Pt]([NH2])([NH2])([OH])([Cl])[Cl])C1CCC2C3CCC4CC(O)CCC4(C)C3CCC12C (stereo not drawn) | shake flask | octanol/phosphate buffer | pH 7.4 | -0.88
COc1ccc(C2CC(Nc3ccc(-c4ccc(NC5=NOC(c6ccc(OC)cc6)C5)cc4)cc3)=NO2)cc1 (stereo not drawn) | shake flask UV/Vis | n-octanol/water |  | 6.16
Nc1cc2cccnc2c2ncccc12.[Cl-].[Cl-].[Ru+2].c1cnc2c(c1)ccc1cccnc12.c1cnc2c(c1)ccc1cccnc12 | shake flask | n-octanol/water |  | -1.12
COc1ccc(Nc2nc(Nc3ccc(OCCOCC[18F])cc3)ncc2Br)cc1 |  | n-octanol/PBS | pH 7.4 | 2.97 ± 0.1
O=c1cc(-c2ccccc2)oc2cc(O)c(O)c([O][Ga+][O]c3c(O)c(O)cc4oc(-c5ccccc5)cc(=O)c34)c12 | shake-flask octanol/PBS |  | pH 7.4, 37 °C | 1.38
COc1ccccc1C1CC(Nc2ccc(-c3ccc(NC4=NOC(c5ccccc5OC)C4)cc3)cc2)=NO1 (stereo not drawn) | shake flask UV/Vis | n-octanol/water |  | 6.01
O=c1cc(/C=C/c2ccc(N3CCCC3)cc2)oc(/C=C/c2ccc(N3CCCC3)cc2)c1 |  | n-octanol/10 mM PBS | pH 7.4 | 1.34
COc1ccccc1C1CC(Nc2ccc(-c3ccc(NC4=NN(C(C)=O)C(c5ccccc5OC)C4)cc3)cc2)=NN1C(C)=O (stereo not drawn) | shake flask UV/Vis | n-octanol/water |  | 6.78
O=C(O)/C=C\C(=O)NCCCOCCOCCOCCCNC(=O)/C=C\C(=O)O | shake-flask | n-octanol/water | 24 °C | -0.43
O=C(C=Cc1ccc(O)cc1)Nc1ccc(-c2ccc(NC(=O)C=Cc3ccc(O)cc3)cc2)cc1 | shake flask UV/Vis | n-octanol/water |  | 5.42
NS(=O)(=O)c1ccc(N/N=C2\C(=O)Nc3ccc(C(=O)NCCc4c[nH]cn4)cc32)cc1 |  | octanol/buffer, 40 mM buffer | pH 11 | 1.01
c1ccc(C2CC(Nc3ccc(-c4ccc(NC5=NOC(c6ccccc6)C5)cc4)cc3)=NO2)cc1 (stereo not drawn) | shake flask UV/Vis | n-octanol/water |  | 6.6
O=C(NCCCOCCOCCOCCCNC(=O)[C@H]1CCCC[C@H]1C(=O)O)[C@H]1CCCC[C@H]1C(=O)O | shake-flask | n-octanol/water | 24 °C | 0.02
CC(=O)N1N=C(Nc2ccc(-c3ccc(NC4=NN(C(C)=O)C(c5ccccc5)C4)cc3)cc2)CC1c1ccccc1 (stereo not drawn) | shake flask UV/Vis | n-octanol/water |  | 6.42
C1=[N+]2CCC[N+]3=Cc4ccc5[n]4[Au-]23[n]2c1ccc2-c1nc2ccccc2nc1-5.F[P-](F)(F)(F)(F)F |  | octanol/water |  | 0.776
